Experimental data of several laboratories.
A part holds a random share of what one study measured.
Chain of UniProt P42679 (whole entry, looked up): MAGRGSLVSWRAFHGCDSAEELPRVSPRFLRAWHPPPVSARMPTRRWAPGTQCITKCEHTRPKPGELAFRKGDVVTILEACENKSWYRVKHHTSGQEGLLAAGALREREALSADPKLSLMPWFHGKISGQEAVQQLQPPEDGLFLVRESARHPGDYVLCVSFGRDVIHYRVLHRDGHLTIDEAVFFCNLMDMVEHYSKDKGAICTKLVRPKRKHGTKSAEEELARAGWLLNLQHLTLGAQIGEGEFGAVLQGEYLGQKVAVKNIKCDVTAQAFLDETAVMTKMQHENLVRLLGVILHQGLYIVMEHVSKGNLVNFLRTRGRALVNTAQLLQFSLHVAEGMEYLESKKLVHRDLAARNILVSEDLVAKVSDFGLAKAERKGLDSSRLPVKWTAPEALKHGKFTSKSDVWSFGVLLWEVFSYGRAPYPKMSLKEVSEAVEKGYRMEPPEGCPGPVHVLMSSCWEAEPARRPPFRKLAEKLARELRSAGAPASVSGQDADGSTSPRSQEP
Chain of UniProt Q9NR20 (whole entry, looked up): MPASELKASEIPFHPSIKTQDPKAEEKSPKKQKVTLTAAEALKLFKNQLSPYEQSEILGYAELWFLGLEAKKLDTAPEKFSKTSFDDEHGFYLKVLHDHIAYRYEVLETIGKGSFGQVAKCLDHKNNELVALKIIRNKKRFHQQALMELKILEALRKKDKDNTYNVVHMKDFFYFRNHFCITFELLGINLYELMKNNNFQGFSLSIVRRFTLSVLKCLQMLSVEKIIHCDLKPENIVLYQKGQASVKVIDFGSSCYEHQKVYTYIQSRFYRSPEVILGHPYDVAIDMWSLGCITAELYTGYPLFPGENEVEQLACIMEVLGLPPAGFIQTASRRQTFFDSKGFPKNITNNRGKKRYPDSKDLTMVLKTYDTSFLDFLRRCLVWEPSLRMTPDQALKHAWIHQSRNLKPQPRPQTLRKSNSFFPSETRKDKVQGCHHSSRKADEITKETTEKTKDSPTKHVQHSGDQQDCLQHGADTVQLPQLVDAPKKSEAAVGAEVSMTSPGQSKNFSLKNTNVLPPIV

Series 1
Target: RNA binding protein fox-1 homolog 2, RRM domain, GST-SBP tag (RBFOX2, Homo sapiens, UniProt O43251-10, residues 100-194)
Technique: RNA Bind-n-Seq
Form: RNA
Matrix: in vitro
Concentration: 365 nM
Notes: natural RNA segment, single round, ends assumed
Baseline: no-protein control
Reading: higher = stronger binding
Endpoint: RBNS enrichment (R)
Construct (chain): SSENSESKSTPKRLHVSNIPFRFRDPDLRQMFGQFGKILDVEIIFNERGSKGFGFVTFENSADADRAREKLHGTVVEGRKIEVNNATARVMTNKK
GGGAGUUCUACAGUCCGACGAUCAGAUAAGAAAACUGCAUGUGGAGAGCGGCGCACAAGAGUUCUGAGUUCAGCACGUCCCCCACCCUCUUCCUGCCGCCUGCAAACCUCACGUGCAGCUUUUCUAUAUGCACUGGAAUUCUCGGGUGCCAA: 4.63
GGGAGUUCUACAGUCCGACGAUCUCCACGAUAAGAAAAACAACCCCACCAAUCAGAUAGCGGAGCCUGUUAUUUGAAGCUGCAGAGCCACACCCUUGGCCUAACCCCUAGCAGACUGAGGCUCUCCCAUGCCUUGGAAUUCUCGGGUGCCAA: 0.387
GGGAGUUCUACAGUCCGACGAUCGUGUAAGUUUAAUUAAUUGUAUAUUGUGUGAAUAGAACAACUUAAAUAUUACAGCAAUACACUGGGCUAGUGUCUCACAAAUAACUGAUUUACUCAGAGCCACCUGACAGUGGAAUUCUCGGGUGCCAA: 0.357
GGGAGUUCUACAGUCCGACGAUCGACUCAGGACAGAGCAUCUCACGCGAAGUUCUGUGUGGCAGUCAAGUGUUCCUCGUGGAGUCAGCCUGAGGUAGAUUUCCAGGAAAGCCUUUUCCUCGUUACCAGUGUGUUGGAAUUCUCGGGUGCCAA: 0.338
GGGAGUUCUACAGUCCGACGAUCGUGCAGCCAGAGUGGCGCAGUGCACUAAGGUGCCGGCCGCCCUGCCUGCCCGGUGCCUCCCACUGACCUGAGCUUACUAAGGGAUGGCAGCAGCUCCCCAGAAAAAAACGUGGAAUUCUCGGGUGCCAA: 0.477
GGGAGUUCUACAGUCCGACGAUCCUGUCAUUUAUUAUCCUAAAGAAGAAAACAUAAUAACCAUAAUGGGCUCUCAACUCAACUCCCUUUUUUAUUUAGUUCUAUUUGGAGGAGUUAUGUAUUUUUUACAUUAGUGGAAUUCUCGGGUGCCAA: 0.639
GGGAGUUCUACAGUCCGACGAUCCAUGAGGAGAAAAAAAGCAUGUGUCAUGCAUGAAGGAAACUGAACUUGAGGUGGCCUCCUUGCUUGUUACAUACCUGGGUAUGUGUAGGCAGUUUAGUGCAUCUUUGCCUUGGAAUUCUCGGGUGCCAA: 8.69
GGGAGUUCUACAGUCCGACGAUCUCUUCACCUUGGUUUAUGAGAACUGGUUCUUGCCUUCCCCUUGAACCUCAUUAAAUGGUGAUUUCUUGCUAAGCUCCAGCCCGAGUGGUCUCCUCUCAGCUUCUAAUUUUUGGAAUUCUCGGGUGCCAA: 0.628

Series 2
Target: Prothrombin, mature alpha-thrombin (F2, Homo sapiens, UniProt P00734)
Technique: aptamer microarray, sandwich
Form: DNA with 2'F-ANA
Matrix: in vitro
Concentration: 200 nM
Notes: whole 15-mer aptamer, many near background
Together with: Cy3 exosite-II aptamer, 400 nM
Reading: higher = stronger binding
Endpoint: mean fluorescence intensity
Strand: GGTTGGTGTGGTTGG
2'F-ANA at 3 5 6 7 8 9 10 12 13 15: 63.5 a.u.
2'F-ANA at 2 5 6 7 11 12 14: 83.3 a.u.
2'F-ANA at 3 4 6 10 12 13 15: 247 a.u.
2'F-ANA at 1 6 7 9 11 12: 206 a.u.
2'F-ANA at 4 6 8 9 11 15: 209 a.u.
2'F-ANA at 1 2 3 4 6 9 14: 74.4 a.u.
2'F-ANA at 1 3 6 8 10 13 14 15: 73.2 a.u.
2'F-ANA at 2 5 6 7 10 11: 49.5 a.u.

Further values, each from its own experiment
Cc1c(C(=O)O)cc(-c2ccc(C3CCNCC3)cc2)c2ccc(-c3ccc(C(F)(F)F)cc3)cc12 — remaining binding (MATK (Homo sapiens, UniProt P42679); binding, competition with immobilised ligand; 1 µM): 100%
O=C(Nc1cccc(Nc2nccc(Nc3cccc(C(F)(F)F)c3)n2)c1)C1CC1 — remaining activity (DYRK4 (Homo sapiens, UniProt Q9NR20); enzyme activity, inhibitor; 0.5 µM; baseline: control): 107%

Excerpt of the above (series 1):
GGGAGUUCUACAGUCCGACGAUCGACUCAGGACAGAGCAUCUCACGCGAAGUUCUGUGUGGCAGUCAAGUGUUCCUCGUGGAGUCAGCCUGAGGUAGAUUUCCAGGAAAGCCUUUUCCUCGUUACCAGUGUGUUGGAAUUCUCGGGUGCCAA: 0.338
